Results collected from several papers.
“And” joins repeats or separate records; there may be more than shown. Numbers after ± are the reported error.

Structure (SMILES) | target or system | test | test system | setting | how to read | quantity | value
O=C(O)CCCOc1ccc(F)cc1-c1cc(-c2ccccc2C(F)(F)F)n(-c2ccccc2)n1 | – | measured: Lymphocytes | Crl:CD(SD) rats, female, blood | iv, 25 µg/kg, 1 day | – | leukocyte differential | 81.2 ± 4.2%
CCN(CCO)CCCC(C)Nc1ccnc2cc(Cl)ccc12 (stereo not drawn) | – | – | newly diagnosed glioblastoma patients | oral, 400 mg/dose, grade 1, added: radiotherapy plus temozolomide | – | platelet count decreased patients | 66%
Cc1cccc(Cn2nc(C3CC3)c3c(NC(=O)c4cnc5cc(OCCN6CCN(C)CC6)ccn45)cccc32)n1 | – | CTCAE v4.03, measured: blood CPK increased | advanced solid tumour patients | oral, dose not given, all cohorts, added: pembrolizumab IV every 3 weeks | – | all-cause adverse events | 28.1%
C[C@]12CC[C@H](n3ccnc3)CC1=CC[C@@H]1[C@@H]2CC[C@]2(C)C(n3cnc4ccccc43)=CC[C@@H]12.Cl | – | – | CD-1 mouse, male, plasma | intravenous, 1 mg/kg | – | t_half | ~180 min
C[C@]1(CO)Cc2ncn(-c3ccc(C#N)c(Cl)c3)c2C(=O)O1 | – | – | healthy Japanese adults, plasma | 3 mg once daily, after first dose, multiple dose | – | AUC(0-inf) | 1.04 µM·h
O[C@H]1CCCN[C@@H]1CCCn1cnc2c(Cl)c(Cl)ccc21 | – | – | human, UGT2B7 ND+DD phenotype, plasma | oral, 150 mg, single dose | – | Cmax | 235 ng/mL
Clc1ccc(-c2cc(Cl)c(Cl)c(Cl)c2)cc1 | – | – | PDMS-water partitioning | PCB compilation | baseline: maximum over minimum K | literature range factor | 1.1
COc1ccnc(C(=O)N[C@H]2COC(=O)[C@H](Cc3ccccc3)[C@@H](OC(=O)C(C)C)[C@H](C)OC2=O)c1OCOC(=O)C(C)C | – | aerobic dark soil incubation | sandy loam soil | 20 °C, persistence endpoint | – | DT50 | 1.4 days
Cc1cc(C)c(CNC(=O)c2cc(Cl)c3c(c2C)O[C@@](C)([C@H]2CC[C@H](N(C)C)CC2)O3)c(=O)[nH]1 | – | – | human, relapsed/refractory NHL | concentration not given, all TEAEs, grade 5 | – | Diarrhoea incidence | 0%
CC[C@H](C)[C@H](NC(=O)[C@H](Cc1ccccc1)NC(=O)[C@H](CCC(=O)O)NC(=O)[C@H](CCCNC(=N)N)NC(=O)[C@H](C)NC(=O)[C@H](C)NC(=O)[C@H](CCC(N)=O)NC(=O)[C@H](CCC(=O)O)NC(=O)[C@H](CCC(=O)O)NC(=O)[C@H](CC(C)C)NC(=O)[C@H](Cc1ccc(O)cc1)NC(=O)[C@H](CO)NC(=O)[C@H](CO)NC(=O)[C@@H](NC(=O)[C@H](CC(=O)O)NC(=O)[C@H](CO)NC(=O)[C@@H](NC(=O)[C@H](Cc1ccccc1)NC(=O)[C@@H](NC(=O)CNC(=O)[C@H](CCC(=O)O)NC(=O)[C@H](C)NC(=O)CCc1cnc[nH]1)[C@@H](C)O)[C@@H](C)O)C(C)C)C(=O)N[C@@H](C)C(=O)N[C@@H](Cc1c[nH]c2ccccc12)C(=O)N[C@@H](CC(C)C)C(=O)N[C@H](C(=O)N[C@@H](CCCNC(=N)N)C(=O)NCC(=O)N[C@@H](CCCNC(=N)N)C(=O)N[C@@H](CCCCNC(=O)COCCOCCNC(=O)COCCOCCNC(=O)CC[C@H](NC(=O)CCCCCCCCCCCCCCCCC(=O)O)C(=O)O)C(=O)NCC(=O)NCC(=O)N[C@@H](CO)C(=O)N[C@@H](CCSC)C(=O)N[C@H](C(=O)N[C@@H](CCCCNc1c(NCCCCCN(O)C(=O)CCC(=O)NCCCCCN(O)C(=O)CCC(=O)NCCCCCN(O)C(C)=O)c(=O)c1=O)C(=O)O)C(C)C)C(C)C [zirconium-89 labelled] | – | ex vivo gamma counting | male Sprague-Dawley rats, colon | intravenous, 5 MBq (1 nmol), 72 h | – | tissue uptake | 0.093 %ID/g and 0.099 %ID/g and 0.087 %ID/g
CC[C@H](C)[C@H](NC(=O)[C@H](CCCNC(=N)N)NC(=O)[C@H](CCC(=O)O)NC(C)=O)C(=O)N[C@H]1CSSC[C@@H](C(=O)N[C@H](C(N)=O)[C@@H](C)O)NC(=O)[C@H](CCCNC(=N)N)NC(=O)[C@H](Cc2c[nH]cn2)NC(=O)[C@H](C)NC(=O)CNC(=O)[C@H](Cc2c[nH]c3ccccc23)NC(=O)[C@H](CC(=O)O)NC(=O)[C@H](CCC(N)=O)NC(=O)[C@H](Cc2c[nH]c3ccccc23)NC(=O)[C@H](C(C)C)NC1=O | – | isocratic RP-HPLC | C18 column | pH 7.4, 25 °C, elution method 2 | higher = more lipophilic | log retention factor | -0.499
N[C@@H]1c2ccccc2OC12CCN(c1cnc3c(N4CCCc5ncccc54)n[nH]c3n1)CC2 | – | – | advanced metastatic solid tumour patients | oral, 10 mg once daily | – | TEAE leading to withdrawal | 0%
CO[C@H]1C[C@@H]2CC[C@@H](C)[C@@](O)(O2)C(=O)C(=O)N2CCCC[C@H]2C(=O)O[C@H]([C@H](C)C[C@@H]2CC[C@@H](OC(=O)NCCOCCOCCOCCOCCOCCOCCOCCOCCC(=O)N3CCc4cc(Cn5nc(-c6ccc7oc(N)nc7c6)c6c(N)ncnc65)ccc4C3)[C@H](OC)C2)C[C@@H](O)[C@H](C)/C=C(\C)[C@@H](O)[C@@H](OC)C(=O)[C@H](C)C[C@H](C)/C=C/C=C/C=C/1C | – | phase 1 dose escalation, measured: nausea | advanced solid tumour patients | intravenous, 12 mg weekly, grade ≥3 | – | TRAE incidence | 0%
Clc1ccc(-c2ccc(Cl)c(Cl)c2)cc1Cl | – | – | polyethylene-water partitioning | PCB compilation | baseline: maximum over minimum K | literature range factor | 2
CN1CCN(c2ccc(Nc3nccc(-c4ccc5ccccc5c4)n3)cc2C(F)(F)F)CC1 | – | – | zebrafish embryos | 50 µM, 5 d | – | toxicity | 0%
CC(C)CC(=O)OC[C@H]1O[C@@](C#N)(c2ccc3c(N)ncnn23)[C@H](O)[C@@H]1O | – | – | monkey plasma | 0.9-90 µM | – | unbound fraction in plasma | 0.711
CCc1ccc(CC/C=C/c2ccc3c(c2)C(=O)CC3)cc1 | – | – | Sprague-Dawley rat, female | oral, 450 mg/kg/day, 14 days | – | CHCM | 333 g/L
O=C1Nc2cc3[nH]nc(-c4ccncc4)c3cc2CN1Cc1ccccc1 | – | CTCAE v4.03 | advanced solid tumour patients | intravenous, 3.6 mg/kg, schedules 1/2 | – | patients with constipation | 0%
O=S(=O)(Nc1ccccc1)c1ccc(NC(=S)Nc2ccccc2)cc1 | – | – | male mouse, blood | oral, 5 mg/kg daily, 14 days | – | potassium level | 8.55 mmol/L
C=C(CN(C(=O)c1c(C(F)F)nn(C)c1F)C1CC1)c1ccc(Cl)cc1Cl | – | static acute toxicity test | zebrafish (Brachydanio rerio) | 0.833 mg a.i./L, 96 h | – | mortality | 30%
CC(=O)c1c(C)c2cnc(Nc3ccc(C4CCN(CCS(C)(=O)=O)CC4)cn3)nc2n(C2CCCC2)c1=O | – | – | human, plasma | oral, 25 mg once daily, day 21, multiple doses | – | elimination rate constant | 3.33e-05 s⁻¹

Structure (SMILES) | target or system | test | test system | setting | how to read | quantity | value
COc1cc2c(Oc3ccc4[nH]c(C)cc4c3F)ccnc2cc1OCC1(N)CC1 | – | – | paediatric recurrent refractory sarcoma | concentration not given, whole group | – | grade 1 or 2 Rash | 14.7%
COc1ccc(-c2c(-c3ccc(C#N)c(F)c3)nc(N3CCC(N)CC3)n(C)c2=O)cc1F | – | measured: Neutropenia | neuroendocrine neoplasm patients | oral, 60 mg, any grade, dose expansion | – | treatment-related adverse event incidence | 19%
C[C@]1(O)C[C@@](N)(c2ccc(-c3nc4n(c3-c3ccccc3)COc3ccncc3-4)cc2)C1 | – | – | human, advanced or metastatic solid tumours | once daily, dose escalation total, any grade | – | patients with Nausea TEAE | 11.1%
Clc1ccc(Cl)c(-c2ccccc2Cl)c1 | – | – | fresh water | 20 °C, SSP sampler, 100 µm | – | log K(PDMS-water) | 4.91 ± 0.03
CC(=O)N(C)[C@H]1CCN(C(=O)c2cnc3c(c2)C[C@](C)(c2ccc(F)cc2)N3)C1 | – | measured: decreased appetite | human | oral, dose not given, added: midazolam | – | adverse event duration | 2 days
CNCCCN1c2ccccc2CCc2ccccc21 | Plasmodium falciparum | – | GB4 | – | – | IC50 | 10 µM
C[C@@H](NC(=O)N1C(=O)[C@H](Cc2ccnc(N)c2)[C@H]1C(=O)O)C1CCCCC1 | – | – | healthy adult Chinese volunteers | continuous intravenous infusion, 0.3 mg/kg/h, 5-day infusion, CTCAE 5.0 grading | – | incidence of decreased neutrophil | 0%
CC(C)C[C@@H]1NC(=O)[C@H](CC(N)=O)NC(=O)[C@H](CCCNC(=N)N)NC(=O)[C@H]([C@@H](C)O)NC(=O)[C@@H]2CSSC[C@@H]3NC(=O)[C@H]([C@@H](C)O)NC(=O)CNC(=O)CNC(=O)[C@H](C(C)C)NC(=O)[C@@H]4CSSC[C@H](NC(=O)[C@H]([C@@H](C)O)NC(=O)[C@H](CSSC[C@H](NC(=O)[C@H](C(C)C)NC(=O)[C@@H]5CCCN5C(=O)[C@H](CC(C)C)NC1=O)C(=O)NCC(=O)N[C@@H](CCC(=O)O)C(=O)N[C@@H]([C@@H](C)O)C(=O)N4)NC(=O)CNC(=O)[C@@H]1CCCN1C(=O)[C@H]([C@@H](C)O)NC(=O)[C@H](CC(N)=O)NC3=O)C(=O)N[C@@H](CO)C(=O)N[C@@H](Cc1c[nH]c3ccccc13)C(=O)N1CCC[C@H]1C(=O)N[C@@H](C(C)C)C(=O)N2 | – | HPLC | ammonium bicarbonate | 180 µM, 14 days, pH 9.0, 25 °C, deamidation stability | – | remaining peptide | 98.1 ± 1.4%
NC(=O)[C@H]1CCN(c2ncnc(N)c2F)C[C@@H]1N1CCC[C@@H](Nc2cc(Cl)cc(C(F)(F)F)c2)C1=O | – | – | B-cell malignancy patients | oral, 328 mg twice daily, dose | – | grade ≥3 bilirubin increase | 0%
COc1cccc(Oc2ccccc2NC(=O)CNC(=O)c2cccc3ccccc23)c1 | – | – | esterase-deficient SCID mice, male, blood | oral, 15 mg/kg/day, 14 days, toxicity study | – | hemoglobin | 13 g/dL and 14.5 g/dL and 12.9 g/dL
NCC(=O)NCCC(c1ccccc1)c1ccccc1 | Plasmodium falciparum | – | Dd2 | – | – | IC50 | 6.31 µM
Clc1ccc(Cl)c(-c2cc(Cl)ccc2Cl)c1 | – | – | polyethylene-water partitioning | PCB compilation | baseline: maximum over minimum K | literature range factor | 1.4
CN[C@H]1CC[C@@H](c2ccc(Cl)c(Cl)c2)c2ccccc21 | – | – | CD-1 mouse, male, lung | intraperitoneal, 0.3 mg/kg | – | Tmax | 1 h
CCN1[C@@H](C(=O)NC23CCC(C(=O)O)(CC2)CC3)[C@H](c2cccc(Cl)c2F)[C@]2(C(=O)Nc3cc(Cl)ccc32)C12CCCCC2 | – | – | patients with advanced solid tumours | oral, dose not given, all doses | – | grade ≥3 Neutropenia incidence | 23.8%
CN1CC[C@@H](c2c(O)cc(O)c3c(=O)cc(-c4ccc(C(F)(F)F)cc4Cl)oc23)[C@@H]1CO | – | measured: febrile neutropenia | B-cell malignancies or AML | oral, 100 mg, grade 3 to 4, continuous dosing | – | patients with adverse event | 12.5%
O=C(Nc1ccccc1)C1CCN(C(=O)Oc2cccnc2)CC1 | – | adverse event reporting | healthy women | oral, 100 mg, 9 days | – | subjects with Rhinitis adverse event | 7.7%
CCCCc1nc2cc(/C=C/C(=O)NO)ccc2n1CCN(CC)CC | – | – | mouse, SET-2 subcutaneous xenograft | 125 mg/kg every other day, day 18 | baseline: baseline | body weight | 95%
Clc1ccc(-c2ccccc2)cc1 | – | – | Sprague-Dawley rats, female, serum | inhalation, 23 µg/rat, 4 h after exposure | – | chloride | 86 ± 10 mmol/L
CC(C)[C@H](C(=O)O[C@H](C#N)c1cccc(Oc2ccccc2)c1)c1ccc(Cl)cc1 | – | measured: CYP2C9 | human, age 1 year | – | – | enzyme contribution to clearance | 20.1%
COc1cc2c(cc1OC)CN(CCc1ccc(NC(=O)c3cccc4c(=O)c5cccc(OC)c5[nH]c34)cc1)CC2 | – | – | CD-1 mouse, male, lung | intraperitoneal, 3 mg/kg | – | elimination rate constant | 3.5e-05 s⁻¹
O=[N+]([O-])c1cc2c3c(ccc2c2ccccc12)[C@@H](O)[C@H](O)C=C3 | – | measured: others mammary tumours | female Sprague-Dawley rats | intramammary, 12.3 µmol per rat, up to 32 weeks | – | tumours per rat | 0

For quick reference, copied from above:
Structure (SMILES) | target or system | test | test system | setting | how to read | quantity | value
C[C@]1(O)C[C@@](N)(c2ccc(-c3nc4n(c3-c3ccccc3)COc3ccncc3-4)cc2)C1 | – | – | human, advanced or metastatic solid tumours | once daily, dose escalation total, any grade | – | patients with Nausea TEAE | 11.1%
C[C@@H](NC(=O)N1C(=O)[C@H](Cc2ccnc(N)c2)[C@H]1C(=O)O)C1CCCCC1 | – | – | healthy adult Chinese volunteers | continuous intravenous infusion, 0.3 mg/kg/h, 5-day infusion, CTCAE 5.0 grading | – | incidence of decreased neutrophil | 0%
CCN1[C@@H](C(=O)NC23CCC(C(=O)O)(CC2)CC3)[C@H](c2cccc(Cl)c2F)[C@]2(C(=O)Nc3cc(Cl)ccc32)C12CCCCC2 | – | – | patients with advanced solid tumours | oral, dose not given, all doses | – | grade ≥3 Neutropenia incidence | 23.8%
C[C@]12CC[C@H](n3ccnc3)CC1=CC[C@@H]1[C@@H]2CC[C@]2(C)C(n3cnc4ccccc43)=CC[C@@H]12.Cl | – | – | CD-1 mouse, male, plasma | intravenous, 1 mg/kg | – | t_half | ~180 min
CO[C@H]1C[C@@H]2CC[C@@H](C)[C@@](O)(O2)C(=O)C(=O)N2CCCC[C@H]2C(=O)O[C@H]([C@H](C)C[C@@H]2CC[C@@H](OC(=O)NCCOCCOCCOCCOCCOCCOCCOCCOCCC(=O)N3CCc4cc(Cn5nc(-c6ccc7oc(N)nc7c6)c6c(N)ncnc65)ccc4C3)[C@H](OC)C2)C[C@@H](O)[C@H](C)/C=C(\C)[C@@H](O)[C@@H](OC)C(=O)[C@H](C)C[C@H](C)/C=C/C=C/C=C/1C | – | phase 1 dose escalation, measured: nausea | advanced solid tumour patients | intravenous, 12 mg weekly, grade ≥3 | – | TRAE incidence | 0%
